Measured values pooled from the literature.
Lines come from different studies, so protocols differ. ± gives the spread as reported.
Sequence of UniProt P27338 (whole entry, looked up): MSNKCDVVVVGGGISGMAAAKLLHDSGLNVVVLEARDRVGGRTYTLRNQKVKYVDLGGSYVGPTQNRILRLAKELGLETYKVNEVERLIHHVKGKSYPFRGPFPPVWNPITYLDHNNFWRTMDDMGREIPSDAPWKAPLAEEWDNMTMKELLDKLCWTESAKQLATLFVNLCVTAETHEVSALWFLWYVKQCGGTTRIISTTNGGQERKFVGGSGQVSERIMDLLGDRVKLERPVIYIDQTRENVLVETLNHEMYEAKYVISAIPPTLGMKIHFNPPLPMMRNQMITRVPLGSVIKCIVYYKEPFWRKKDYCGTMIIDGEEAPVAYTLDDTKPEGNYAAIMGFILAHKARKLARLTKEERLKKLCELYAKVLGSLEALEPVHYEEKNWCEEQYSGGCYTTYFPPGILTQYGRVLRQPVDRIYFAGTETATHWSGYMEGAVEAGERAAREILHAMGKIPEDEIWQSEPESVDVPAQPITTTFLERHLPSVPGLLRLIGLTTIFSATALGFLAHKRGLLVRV
Sequence of UniProt P30803 (whole entry, looked up): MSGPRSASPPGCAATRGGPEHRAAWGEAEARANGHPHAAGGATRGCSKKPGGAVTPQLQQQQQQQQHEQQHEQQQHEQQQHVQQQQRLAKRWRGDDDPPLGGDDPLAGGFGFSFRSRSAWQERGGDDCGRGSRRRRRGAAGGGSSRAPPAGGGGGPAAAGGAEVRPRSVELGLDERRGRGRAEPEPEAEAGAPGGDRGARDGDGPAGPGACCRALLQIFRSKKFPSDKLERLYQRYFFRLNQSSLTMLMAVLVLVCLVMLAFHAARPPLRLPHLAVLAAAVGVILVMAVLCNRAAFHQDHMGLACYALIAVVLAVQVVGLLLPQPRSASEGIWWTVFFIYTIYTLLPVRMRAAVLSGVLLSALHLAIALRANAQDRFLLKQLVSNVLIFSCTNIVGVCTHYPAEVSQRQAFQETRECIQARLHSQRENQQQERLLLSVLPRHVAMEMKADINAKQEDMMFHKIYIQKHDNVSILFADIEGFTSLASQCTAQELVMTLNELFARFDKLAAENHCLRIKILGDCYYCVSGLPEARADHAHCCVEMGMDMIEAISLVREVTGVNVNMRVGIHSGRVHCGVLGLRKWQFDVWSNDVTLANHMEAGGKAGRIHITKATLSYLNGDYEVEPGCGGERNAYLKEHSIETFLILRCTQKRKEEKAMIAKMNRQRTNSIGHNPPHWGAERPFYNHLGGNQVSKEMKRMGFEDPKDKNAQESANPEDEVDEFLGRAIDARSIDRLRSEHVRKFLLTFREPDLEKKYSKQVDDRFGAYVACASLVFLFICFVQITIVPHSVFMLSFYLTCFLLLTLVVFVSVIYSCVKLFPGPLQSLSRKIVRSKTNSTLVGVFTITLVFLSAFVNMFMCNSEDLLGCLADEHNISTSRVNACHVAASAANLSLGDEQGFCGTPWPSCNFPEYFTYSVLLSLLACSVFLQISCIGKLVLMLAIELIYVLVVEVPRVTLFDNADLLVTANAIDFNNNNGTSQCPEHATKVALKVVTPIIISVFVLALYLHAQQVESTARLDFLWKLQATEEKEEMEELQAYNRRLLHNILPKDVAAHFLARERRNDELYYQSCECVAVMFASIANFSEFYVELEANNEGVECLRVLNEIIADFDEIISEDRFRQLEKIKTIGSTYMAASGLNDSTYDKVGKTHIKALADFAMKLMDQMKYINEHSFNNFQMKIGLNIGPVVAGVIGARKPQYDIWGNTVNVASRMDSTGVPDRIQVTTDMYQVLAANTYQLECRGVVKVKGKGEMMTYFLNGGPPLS
Sequence of UniProt P26769 (whole entry, looked up): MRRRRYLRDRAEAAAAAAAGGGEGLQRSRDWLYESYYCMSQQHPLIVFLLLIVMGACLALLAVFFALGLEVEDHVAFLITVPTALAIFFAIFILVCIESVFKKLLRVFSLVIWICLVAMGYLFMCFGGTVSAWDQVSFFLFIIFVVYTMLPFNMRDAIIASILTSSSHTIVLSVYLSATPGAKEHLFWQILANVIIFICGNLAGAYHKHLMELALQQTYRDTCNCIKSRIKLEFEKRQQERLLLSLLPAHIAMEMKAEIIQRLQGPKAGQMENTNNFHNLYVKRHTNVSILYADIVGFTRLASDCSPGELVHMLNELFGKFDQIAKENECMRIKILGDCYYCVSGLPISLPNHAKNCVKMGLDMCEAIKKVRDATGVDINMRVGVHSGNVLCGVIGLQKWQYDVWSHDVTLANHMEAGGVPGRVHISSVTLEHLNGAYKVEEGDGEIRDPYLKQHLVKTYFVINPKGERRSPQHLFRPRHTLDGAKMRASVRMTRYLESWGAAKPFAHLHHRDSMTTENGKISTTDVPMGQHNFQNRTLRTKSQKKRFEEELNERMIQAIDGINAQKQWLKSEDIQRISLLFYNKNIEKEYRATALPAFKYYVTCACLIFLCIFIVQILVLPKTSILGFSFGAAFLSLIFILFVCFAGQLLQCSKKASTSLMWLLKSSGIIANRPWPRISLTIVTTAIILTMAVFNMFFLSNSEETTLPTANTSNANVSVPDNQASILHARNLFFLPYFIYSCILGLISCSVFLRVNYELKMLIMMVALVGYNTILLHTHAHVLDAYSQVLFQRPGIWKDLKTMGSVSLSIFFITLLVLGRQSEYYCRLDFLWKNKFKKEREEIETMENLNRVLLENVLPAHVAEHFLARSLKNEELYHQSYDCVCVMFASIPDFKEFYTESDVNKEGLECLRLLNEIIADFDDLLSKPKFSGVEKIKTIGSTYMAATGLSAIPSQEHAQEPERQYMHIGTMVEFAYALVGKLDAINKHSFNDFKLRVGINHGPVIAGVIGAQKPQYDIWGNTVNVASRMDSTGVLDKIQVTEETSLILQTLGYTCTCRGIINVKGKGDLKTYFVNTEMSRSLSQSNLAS
Sequence of UniProt O94925 (whole entry, looked up): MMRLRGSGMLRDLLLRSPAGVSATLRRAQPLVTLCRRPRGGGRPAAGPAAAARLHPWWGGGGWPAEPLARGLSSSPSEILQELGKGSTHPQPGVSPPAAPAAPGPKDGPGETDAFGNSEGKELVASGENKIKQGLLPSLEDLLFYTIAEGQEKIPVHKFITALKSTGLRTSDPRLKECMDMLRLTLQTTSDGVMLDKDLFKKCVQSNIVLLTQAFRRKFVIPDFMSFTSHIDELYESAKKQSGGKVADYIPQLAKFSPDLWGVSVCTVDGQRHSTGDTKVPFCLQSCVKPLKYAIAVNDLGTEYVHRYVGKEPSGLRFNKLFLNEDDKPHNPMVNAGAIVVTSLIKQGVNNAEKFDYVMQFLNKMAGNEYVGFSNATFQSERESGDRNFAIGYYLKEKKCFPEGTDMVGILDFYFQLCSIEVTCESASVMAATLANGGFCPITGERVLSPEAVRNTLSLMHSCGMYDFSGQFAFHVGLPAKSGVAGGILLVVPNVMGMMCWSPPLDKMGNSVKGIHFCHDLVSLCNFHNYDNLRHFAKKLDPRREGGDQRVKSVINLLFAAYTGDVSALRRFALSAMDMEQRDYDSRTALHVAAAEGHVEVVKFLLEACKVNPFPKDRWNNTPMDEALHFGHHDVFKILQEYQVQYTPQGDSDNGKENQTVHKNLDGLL
Sequence of UniProt O15151 (whole entry, looked up): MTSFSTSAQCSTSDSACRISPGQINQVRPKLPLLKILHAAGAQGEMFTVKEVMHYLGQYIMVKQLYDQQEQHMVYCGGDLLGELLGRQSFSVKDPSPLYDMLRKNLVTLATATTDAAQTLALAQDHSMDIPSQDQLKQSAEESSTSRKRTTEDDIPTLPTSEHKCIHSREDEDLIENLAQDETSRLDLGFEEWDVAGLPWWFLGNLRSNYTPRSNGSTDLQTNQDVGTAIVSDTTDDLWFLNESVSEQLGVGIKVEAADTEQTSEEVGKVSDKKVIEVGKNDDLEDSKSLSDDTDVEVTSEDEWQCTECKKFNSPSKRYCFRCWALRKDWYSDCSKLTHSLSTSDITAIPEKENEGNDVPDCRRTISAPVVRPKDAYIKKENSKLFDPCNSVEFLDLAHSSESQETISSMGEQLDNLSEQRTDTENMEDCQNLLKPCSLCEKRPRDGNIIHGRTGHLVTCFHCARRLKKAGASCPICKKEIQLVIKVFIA
Sequence of UniProt P0AC78 (whole entry, looked up): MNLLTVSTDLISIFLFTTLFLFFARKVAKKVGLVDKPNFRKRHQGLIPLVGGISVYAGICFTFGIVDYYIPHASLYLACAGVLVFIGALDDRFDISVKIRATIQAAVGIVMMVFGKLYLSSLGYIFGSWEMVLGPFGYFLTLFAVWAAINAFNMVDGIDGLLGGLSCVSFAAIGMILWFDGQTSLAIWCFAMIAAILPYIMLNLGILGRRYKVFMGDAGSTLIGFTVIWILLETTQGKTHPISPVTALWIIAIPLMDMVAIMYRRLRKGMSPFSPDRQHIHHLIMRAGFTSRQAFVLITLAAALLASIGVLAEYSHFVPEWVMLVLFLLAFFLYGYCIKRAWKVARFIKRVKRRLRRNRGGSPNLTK
Sequence of UniProt P02770 (whole entry, looked up): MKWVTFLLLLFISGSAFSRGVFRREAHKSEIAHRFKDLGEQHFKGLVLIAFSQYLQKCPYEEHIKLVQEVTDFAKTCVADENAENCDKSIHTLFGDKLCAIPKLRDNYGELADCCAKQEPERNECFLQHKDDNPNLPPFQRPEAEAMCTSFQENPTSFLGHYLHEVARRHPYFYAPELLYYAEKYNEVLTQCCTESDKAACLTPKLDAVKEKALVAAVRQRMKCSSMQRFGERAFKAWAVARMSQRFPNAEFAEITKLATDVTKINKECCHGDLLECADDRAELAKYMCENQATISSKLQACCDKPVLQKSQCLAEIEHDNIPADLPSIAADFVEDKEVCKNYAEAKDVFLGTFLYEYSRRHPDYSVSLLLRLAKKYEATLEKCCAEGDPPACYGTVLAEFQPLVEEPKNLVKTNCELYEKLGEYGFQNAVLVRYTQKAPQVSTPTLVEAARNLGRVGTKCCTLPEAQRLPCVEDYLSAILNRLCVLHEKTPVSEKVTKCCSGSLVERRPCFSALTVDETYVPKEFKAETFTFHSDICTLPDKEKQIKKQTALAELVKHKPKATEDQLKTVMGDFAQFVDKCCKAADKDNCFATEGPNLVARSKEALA

SMILES = CNc1ccccc1C(=O)O[C@H]1[C@@H](O)[C@H](n2cnc3c(N)ncnc32)O[C@@H]1COP(=O)(O)OP(=O)(O)O; tested on = Adcy2/ADCY5, C1/C2 domains (Rattus norvegicus, UniProt P26769+P30803); test = adenylyl cyclase activity, inhibitor; conditions = with: Mn2+ forskolin Gsα-GTPγS; measurement = Ki; value = 260 ± 40 nM
SMILES = NC1CC1c1ccc(NC(=O)c2cccc3ccccc23)cc1 (stereo not drawn); tested on = MAOB (Homo sapiens, UniProt P27338); test = enzyme activity, inhibitor, HRP-coupled; conditions = 100 µM, with: benzylamine substrate; measurement = inhibition; value = 50%
SMILES = CC[C@H](C)[C@H](NC(=O)[C@H](CCCCN)NC(=O)[C@H](CCC(N)=O)NC(=O)[C@H](Cc1ccccc1)NC(=O)[C@@H](NC(=O)[C@H](CCCCN)NC(=O)[C@H](CCCCN)NC(=O)[C@H](CC(C)C)NC(=O)[C@H](C)NC(=O)[C@H](CC(N)=O)NC(=O)[C@@H](N)CC(C)C)C(C)C)C(=O)N[C@@H](Cc1c[nH]cn1)C(N)=O; tested on = mouse erythrocytes; measurement = HC10; value = 256 µM
SMILES = CC(=O)N[C@@H](CC(=O)O)C(=O)N[C@H]1CSSC[C@@H](C(=O)N[C@H](C(N)=O)[C@@H](C)O)NC(=O)[C@H](Cc2c[nH]c3ccccc23)NC(=O)[C@H](C(C)C)NC(=O)[C@H](CC(C)C)NC(=O)[C@H](CCC(=O)O)NC(=O)CNC(=O)[C@H](CCCCN)NC(=O)[C@H](Cc2c[nH]cn2)NC(=O)[C@H](Cc2ccc(O)cc2)NC(=O)[C@H](C)NC1=O; tested on = Immunoglobulin heavy constant gamma 1 (IGHG1, Homo sapiens, UniProt P01857); test = binding, SPR; conditions = pH 7.4, with: immobilized Herceptin; measurement = Kd; value = > 2000 nM
SMILES = N[C@H](CC[As](O)O)C(=O)O; tested on = GLS (Homo sapiens, UniProt O94925); measurement = IC50; value = 2000 nM
SMILES = CCOP(=O)(OCC)Oc1nc(Cl)c(Cl)cc1Cl; tested on = Albumin (Alb, Rattus norvegicus, UniProt P02770); test = binding; measurement = IC50; value = ~100 nM
SMILES = CC[C@H](C)[C@H](NC(=O)[C@H](C)NC(=O)[C@H](CCC(=O)O)NC(=O)[C@H](Cc1c[nH]cn1)NC(=O)[C@@H](NC(=O)[C@H](CCCCN)NC(=O)[C@H](CCC(N)=O)NC(=O)[C@H](Cc1ccccc1)NC(=O)[C@@H](NC(=O)[C@H](CCCCN)NC(=O)[C@H](CCCCN)NC(=O)[C@H](CC(C)C)NC(=O)[C@H](C)NC(=O)[C@H](CC(N)=O)NC(=O)[C@@H](N)CC(C)C)C(C)C)[C@@H](C)CC)C(=O)N[C@@H](CCCCN)C(N)=O; tested on = mouse erythrocytes; measurement = HC10; value = 128 µM
SMILES = CC[C@H](C)[C@@H]1NC(=O)[C@@H]2CSSC[C@@H]3NC(=O)[C@H](C(C)C)NC(=O)CNC(=O)CNC(=O)[C@H](C)NC(=O)[C@H](CO)NC(=O)[C@H](CC(C)C)NC(=O)[C@H](CC(C)C)NC(=O)[C@H](CC(N)=O)NC(=O)[C@H](Cc4c[nH]c5ccccc45)NC(=O)[C@H](Cc4ccc(O)cc4)NC(=O)[C@H](CCC(=O)O)NC(=O)[C@H](C)NC(=O)[C@H](Cc4ccccc4)NC(=O)[C@H](CO)NC(=O)[C@H]([C@@H](C)O)NC(=O)[C@@H]4CCCN4C(=O)[C@H](C)NC(=O)[C@H](CCCNC(=N)N)NC(=O)[C@H](CO)NC(=O)[C@H](C)NC(=O)CNC(=O)[C@H](CO)NC(=O)CNC(=O)[C@H](CO)NC(=O)CNC(=O)[C@@H]4CSSC[C@H](NC(=O)[C@H](CC(=O)O)NC(=O)[C@H](CO)NC(=O)[C@H](CC(=O)O)NC(=O)[C@H](CCCNC(=N)N)NC(=O)[C@H](CCCNC(=N)N)NC(=O)[C@H](CSSC[C@H](NC1=O)C(=O)N[C@@H](CCCNC(=N)N)C(=O)NCC(=O)N[C@@H](CC(N)=O)C(=O)NCC(=O)N[C@@H](Cc1ccc(O)cc1)C(=O)N4)NC(=O)[C@H](CCCNC(=N)N)NC(=O)[C@H](CCC(N)=O)NC(=O)[C@H](CC(C)C)NC(=O)[C@H]([C@@H](C)CC)NC(=O)[C@H](CCCCN)NC(=O)[C@@H]1CCCN1C3=O)C(=O)N1CCC[C@H]1C(=O)NCC(=O)N[C@@H](C)C(=O)N2; tested on = Protein Mdm4, p53 binding domain (MDM4, Homo sapiens, UniProt O15151); test = binding, fluorescence polarization; conditions = FITC-labelled derivative; measurement = Kd; value = 9.7 ± 0.9 nM
SMILES = CNCCCC[C@H](NC(=O)[C@@H](NC(=O)CNC(=O)CNC(=O)[C@@H](NC(=O)[C@H](C)NC(=O)[C@@H]1CCCN1C(=O)[C@H](C)NC(=O)[C@@H](N)CO)[C@@H](C)O)C(C)C)C(=O)N[C@@H](CCCCN)C(=O)N1CCC[C@H]1C(=O)N[C@@H](Cc1c[nH]cn1)C(=O)N[C@@H](CCCNC(=N)N)C(=O)N[C@@H](Cc1ccc(O)cc1)C(=O)N[C@@H](CCCNC(=N)N)C(=O)N1CCC[C@H]1C(=O)NCC(N)=O; tested on = Polycomb protein Sfmbt (Sfmbt, Drosophila melanogaster, UniProt Q9VK33); test = binding, fluorescence polarization; conditions = pH 8.0, Drosophila melanogaster protein, with: fluorescein-labelled peptide 80 nM; measurement = Kd; value = 5400 nM
SMILES = CC[C@H](C)[C@H](NC(=O)[C@H](CC(N)=O)NC(=O)[C@H](CCCNC(=N)N)NC(=O)[C@@H](NC(=O)[C@@H](NC(=O)[C@H](CC(=O)O)NC(=O)[C@H](CCC(=O)O)NC(=O)[C@H](CCC(N)=O)NC(C)=O)[C@@H](C)CC)[C@@H](C)CC)C(=O)N[C@@H](C)C(=O)N[C@@H](CCCNC(=N)N)C(=O)N[C@@H](Cc1c[nH]cn1)C(=O)N[C@@H](CC(C)C)C(=O)N[C@@H](C)C(=O)N[C@@H](CCC(N)=O)C(=O)N[C@H](C(=O)NCC(=O)N[C@@H](CC(=O)O)C(=O)N[C@@H](CO)C(=O)N[C@@H](CCSC)C(=O)N[C@@H](CC(=O)O)C(=O)N[C@@H](CCCNC(=N)N)C(=O)N[C@@H](CO)C(=O)N[C@H](C(=O)N1CCC[C@H]1C(=O)N1CCC[C@H]1C(N)=O)[C@@H](C)CC)C(C)C; tested on = Bcl-2-like protein 1, C-terminal truncated (BCL2L1, Homo sapiens, UniProt Q07817); test = binding, isothermal titration calorimetry; conditions = pH 7.4, 25 °C, with: PUMA BH3 peptide; measurement = Kd; value = 10 ± 15 nM
SMILES = CC(=O)NC1C(OC2OC(CC(O)C3OC(n4ccc(=O)[nH]c4=O)C(O)C3O)C(O)C(O)C2NC(=O)C=CCCCCCCCCCC(C)C)OC(CO)C(O)C1O (stereo not drawn); tested on = Undecaprenyl-phosphate alpha-N-acetylglucosaminyl 1-phosphate transferase (wecA, Escherichia coli, UniProt P0AC78); measurement = IC50; value = > 50000 nM
SMILES = C#CCCC1(CCCNC(=O)CCOCCOc2ccc(-c3cnc4c(C#Cc5cccnc5)snc4c3)cc2)N=N1; tested on = PIP4K2C (Homo sapiens, UniProt Q8TBX8); measurement = Kd; value = 610 nM

Some of these lines once more:
SMILES = CNc1ccccc1C(=O)O[C@H]1[C@@H](O)[C@H](n2cnc3c(N)ncnc32)O[C@@H]1COP(=O)(O)OP(=O)(O)O; tested on = Adcy2/ADCY5, C1/C2 domains (Rattus norvegicus, UniProt P26769+P30803); test = adenylyl cyclase activity, inhibitor; conditions = with: Mn2+ forskolin Gsα-GTPγS; measurement = Ki; value = 260 ± 40 nM
SMILES = NC1CC1c1ccc(NC(=O)c2cccc3ccccc23)cc1 (stereo not drawn); tested on = MAOB (Homo sapiens, UniProt P27338); test = enzyme activity, inhibitor, HRP-coupled; conditions = 100 µM, with: benzylamine substrate; measurement = inhibition; value = 50%
